# Assay results of several laboratories.
# Numbered parts are unrelated; each lists some results of a single study. Substitutions count along the parent as printed.

# Series 1
# Target: CCNB3, cyclin fold, Cln2 fusion (human)
# Technique: yeast growth competition, sequencing
# Medium: yeast
# Setting: weak parent motif
# Baseline: not given
# Direction: higher = stronger binding
# Starting sequence: MICAL3 docking peptide (human); LQLRRQLSFSEDS; partner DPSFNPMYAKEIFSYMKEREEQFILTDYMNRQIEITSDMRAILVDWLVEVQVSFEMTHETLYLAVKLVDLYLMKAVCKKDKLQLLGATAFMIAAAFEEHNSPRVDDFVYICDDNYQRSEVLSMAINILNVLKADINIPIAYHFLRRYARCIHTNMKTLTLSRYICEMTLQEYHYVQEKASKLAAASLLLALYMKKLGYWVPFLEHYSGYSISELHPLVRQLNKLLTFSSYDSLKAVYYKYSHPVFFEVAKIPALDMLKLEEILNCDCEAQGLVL
Change,normalised enrichment score
D12A,0.0858
F9V,-0.183
R5F,-0.00118
Q2K,0.108

# Series 2
# Target: Centromere-binding protein 1, full length, N-terminal tag (CBF1, Saccharomyces cerevisiae, UniProt P17106, residues 1-351)
# Sequence of UniProt P17106 (whole entry, looked up): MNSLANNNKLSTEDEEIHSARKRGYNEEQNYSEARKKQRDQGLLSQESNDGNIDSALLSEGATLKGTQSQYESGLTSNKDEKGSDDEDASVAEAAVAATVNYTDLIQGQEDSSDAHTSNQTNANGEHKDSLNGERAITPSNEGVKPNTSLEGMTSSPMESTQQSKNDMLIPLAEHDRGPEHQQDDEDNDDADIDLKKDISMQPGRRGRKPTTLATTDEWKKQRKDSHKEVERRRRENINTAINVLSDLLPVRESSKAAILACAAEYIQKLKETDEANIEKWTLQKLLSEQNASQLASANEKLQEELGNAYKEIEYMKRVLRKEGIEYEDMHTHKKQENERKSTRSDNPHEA
# Technique: protein-binding microarray
# Form: double-stranded DNA, one strand shown
# Medium: in vitro
# Concentration: 0.8 µM
# Setting: whole 60-bp probe, no competitor
# Direction: higher = stronger binding
# Constant ends, left off below: … GTCTTGATTCGCTTGACGCTGCTG
Oligonucleotide,fluorescence intensity [a.u.]
GAATTCCAATCGGAGCACGTGAATTTGTAACCATAG,4660
CCTAACTACTATAACAACGTCACATAGCTTCGTACA,536
CTATTTCCAGTACGTAACACCACGCGGCGCCCCTTC,652
GAAAATGACGCCGGTCACACGCGGGTGCCTGATTAG,568
CTATGGTAACAAAGTCACGGCTCCCGGATGTAGTTC,657
CTAAAAAGAAATTCAAACGTGGGCTGCCTATTATTC,500
CTATATGTAGCTACCAACGTGGGAAAACCTTTCTTC,545

# Series 3
# Target: Histone acetyltransferase KAT6A, winged helix 2, GST fusion (KAT6A, Homo sapiens, UniProt Q92794, residues 85-181)
# Technique: protein binding microarray
# Form: double-stranded DNA, one strand shown
# Medium: in vitro
# Concentration: not given
# Setting: 8-mer, flanks averaged, mean of 2 arrays, mostly near background
# Baseline: not given
# Direction: higher = stronger binding
# Construct (chain): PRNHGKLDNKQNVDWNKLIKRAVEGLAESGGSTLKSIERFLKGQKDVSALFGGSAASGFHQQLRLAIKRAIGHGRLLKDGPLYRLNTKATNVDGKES
Oligonucleotide,E-score
AGGTTCTA,-0.107
CTTATGAC,0.00319
ACCATATA,-0.0112
CGTCACTC,-0.0132
TTAAGAAA,0.0849
GCACGCGC,0.0277

# Single results of other studies
Substance,target,test,test system,setting,how to read,measurement,result
"PhoQ, residues 284 288 289 292 302 303 ASASEQ","PhoP, residues 12 14 15 18 19 QYFSL (Escherichia coli, UniProt P23836)","Sort-seq, item: YFP reporter",E. coli,"PhoQ-PhoP variant library, added: 10 µM Mg2+","baseline: high Mg2+ state, higher = stronger signaling",fold induction,13

# A few entries again (series 1):
Change,normalised enrichment score
D12A,0.0858
R5F,-0.00118
